Results pooled from the literature.
Each line is one published result; not all experiments were run side by side. ± gives the spread as reported.
Magi2: Membrane-associated guanylate kinase, WW and PDZ domain-containing protein 2 (Magi2, Mus musculus, UniProt Q9WVQ1)
Sequence of UniProt Q9WVQ1 (whole entry, looked up): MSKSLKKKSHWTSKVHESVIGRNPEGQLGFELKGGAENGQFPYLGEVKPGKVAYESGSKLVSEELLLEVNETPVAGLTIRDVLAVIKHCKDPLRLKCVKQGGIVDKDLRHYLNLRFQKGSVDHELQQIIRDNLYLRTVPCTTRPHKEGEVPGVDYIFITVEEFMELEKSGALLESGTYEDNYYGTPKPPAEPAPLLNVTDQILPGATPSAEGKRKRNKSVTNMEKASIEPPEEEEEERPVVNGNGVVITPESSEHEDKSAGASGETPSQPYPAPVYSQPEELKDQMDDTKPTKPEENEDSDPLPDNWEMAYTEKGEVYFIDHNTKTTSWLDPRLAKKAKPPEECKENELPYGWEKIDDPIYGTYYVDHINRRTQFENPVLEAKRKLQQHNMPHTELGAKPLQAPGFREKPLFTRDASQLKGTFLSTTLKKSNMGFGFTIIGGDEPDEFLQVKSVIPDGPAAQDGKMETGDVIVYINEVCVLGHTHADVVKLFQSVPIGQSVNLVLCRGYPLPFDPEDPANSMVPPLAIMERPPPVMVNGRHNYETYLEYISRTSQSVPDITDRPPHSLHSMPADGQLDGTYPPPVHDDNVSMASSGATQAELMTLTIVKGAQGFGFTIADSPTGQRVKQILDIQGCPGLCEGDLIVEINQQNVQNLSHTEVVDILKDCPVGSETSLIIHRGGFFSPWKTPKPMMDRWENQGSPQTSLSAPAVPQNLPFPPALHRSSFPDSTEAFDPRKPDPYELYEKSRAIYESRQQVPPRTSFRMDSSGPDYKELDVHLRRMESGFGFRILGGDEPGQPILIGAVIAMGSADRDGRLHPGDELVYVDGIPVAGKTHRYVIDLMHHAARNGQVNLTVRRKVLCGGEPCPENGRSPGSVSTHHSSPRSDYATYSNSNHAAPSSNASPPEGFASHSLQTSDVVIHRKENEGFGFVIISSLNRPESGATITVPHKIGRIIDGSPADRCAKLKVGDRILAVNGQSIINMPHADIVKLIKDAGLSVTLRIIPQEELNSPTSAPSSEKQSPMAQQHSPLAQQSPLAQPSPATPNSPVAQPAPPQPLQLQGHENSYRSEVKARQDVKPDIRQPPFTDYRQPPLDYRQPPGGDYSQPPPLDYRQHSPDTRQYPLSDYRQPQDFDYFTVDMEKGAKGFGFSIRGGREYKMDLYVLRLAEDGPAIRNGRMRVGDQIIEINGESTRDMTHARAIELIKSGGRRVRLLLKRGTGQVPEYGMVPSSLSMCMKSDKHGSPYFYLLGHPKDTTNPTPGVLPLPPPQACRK
Chymotrypsin-C S216A: Chymotrypsin-C (Homo sapiens, UniProt Q99895, S216A)
Sequence of UniProt Q99895 (whole entry, unmodified, looked up): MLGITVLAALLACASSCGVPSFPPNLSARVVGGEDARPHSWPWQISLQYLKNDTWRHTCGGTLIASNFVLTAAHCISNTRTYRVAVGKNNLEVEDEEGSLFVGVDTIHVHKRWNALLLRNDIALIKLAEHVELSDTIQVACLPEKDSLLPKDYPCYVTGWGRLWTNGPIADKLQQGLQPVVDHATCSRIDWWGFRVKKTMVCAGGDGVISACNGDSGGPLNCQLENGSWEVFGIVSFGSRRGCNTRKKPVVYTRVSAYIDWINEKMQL
14-3-3 protein epsilon: 14-3-3 protein epsilon (Homo sapiens, UniProt P62258)
Sequence of UniProt P62258 (whole entry, looked up): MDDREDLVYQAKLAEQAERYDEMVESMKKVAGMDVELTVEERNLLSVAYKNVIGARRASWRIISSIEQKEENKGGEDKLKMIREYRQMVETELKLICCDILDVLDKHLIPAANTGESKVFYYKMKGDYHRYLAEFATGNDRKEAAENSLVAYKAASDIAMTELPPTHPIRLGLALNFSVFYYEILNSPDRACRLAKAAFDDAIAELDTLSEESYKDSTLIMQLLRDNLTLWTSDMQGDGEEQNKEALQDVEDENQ
Sequence of UniProt Q9P2K8 (whole entry, unmodified, looked up): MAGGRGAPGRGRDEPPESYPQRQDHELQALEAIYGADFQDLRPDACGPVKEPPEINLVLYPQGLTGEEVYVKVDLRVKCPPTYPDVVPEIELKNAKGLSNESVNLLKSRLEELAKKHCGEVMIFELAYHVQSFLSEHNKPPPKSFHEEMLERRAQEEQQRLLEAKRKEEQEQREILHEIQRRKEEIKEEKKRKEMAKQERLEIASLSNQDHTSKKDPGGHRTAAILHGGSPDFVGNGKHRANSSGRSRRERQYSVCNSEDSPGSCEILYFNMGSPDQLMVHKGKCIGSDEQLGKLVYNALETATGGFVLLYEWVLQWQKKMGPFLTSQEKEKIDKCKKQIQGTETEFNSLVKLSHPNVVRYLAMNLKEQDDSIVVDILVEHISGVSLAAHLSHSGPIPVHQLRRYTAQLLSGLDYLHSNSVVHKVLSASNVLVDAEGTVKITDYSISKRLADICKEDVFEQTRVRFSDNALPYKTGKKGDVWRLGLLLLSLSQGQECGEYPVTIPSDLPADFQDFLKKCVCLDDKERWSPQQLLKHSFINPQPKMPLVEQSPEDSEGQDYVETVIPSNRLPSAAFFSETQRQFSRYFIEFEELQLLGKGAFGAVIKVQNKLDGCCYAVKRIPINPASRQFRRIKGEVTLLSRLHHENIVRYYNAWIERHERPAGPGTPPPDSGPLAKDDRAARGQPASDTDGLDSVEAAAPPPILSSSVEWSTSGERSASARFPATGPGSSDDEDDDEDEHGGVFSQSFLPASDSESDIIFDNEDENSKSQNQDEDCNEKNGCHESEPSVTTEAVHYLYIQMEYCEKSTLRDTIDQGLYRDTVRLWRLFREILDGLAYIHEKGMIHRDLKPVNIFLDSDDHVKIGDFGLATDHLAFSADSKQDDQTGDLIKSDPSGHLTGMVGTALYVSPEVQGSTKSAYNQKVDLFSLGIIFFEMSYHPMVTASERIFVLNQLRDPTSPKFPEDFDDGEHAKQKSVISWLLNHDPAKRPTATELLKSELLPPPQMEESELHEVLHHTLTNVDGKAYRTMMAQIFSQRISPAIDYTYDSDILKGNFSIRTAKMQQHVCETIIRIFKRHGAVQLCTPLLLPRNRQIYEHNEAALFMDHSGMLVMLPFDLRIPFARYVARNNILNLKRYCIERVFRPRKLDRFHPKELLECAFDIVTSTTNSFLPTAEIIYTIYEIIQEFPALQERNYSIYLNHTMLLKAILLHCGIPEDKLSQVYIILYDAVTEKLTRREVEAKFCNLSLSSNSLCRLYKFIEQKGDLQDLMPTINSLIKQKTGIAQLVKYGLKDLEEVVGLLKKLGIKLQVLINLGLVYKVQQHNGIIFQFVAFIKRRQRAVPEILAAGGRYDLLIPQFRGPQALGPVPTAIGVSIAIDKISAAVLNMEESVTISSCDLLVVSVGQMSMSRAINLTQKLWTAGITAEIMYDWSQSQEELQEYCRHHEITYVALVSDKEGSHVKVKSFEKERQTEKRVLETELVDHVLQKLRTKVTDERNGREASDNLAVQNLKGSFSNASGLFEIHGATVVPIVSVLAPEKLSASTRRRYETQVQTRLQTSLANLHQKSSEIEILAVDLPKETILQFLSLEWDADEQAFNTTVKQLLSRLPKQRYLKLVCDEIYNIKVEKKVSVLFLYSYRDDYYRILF
Sequence of UniProt P31554 (whole entry, looked up): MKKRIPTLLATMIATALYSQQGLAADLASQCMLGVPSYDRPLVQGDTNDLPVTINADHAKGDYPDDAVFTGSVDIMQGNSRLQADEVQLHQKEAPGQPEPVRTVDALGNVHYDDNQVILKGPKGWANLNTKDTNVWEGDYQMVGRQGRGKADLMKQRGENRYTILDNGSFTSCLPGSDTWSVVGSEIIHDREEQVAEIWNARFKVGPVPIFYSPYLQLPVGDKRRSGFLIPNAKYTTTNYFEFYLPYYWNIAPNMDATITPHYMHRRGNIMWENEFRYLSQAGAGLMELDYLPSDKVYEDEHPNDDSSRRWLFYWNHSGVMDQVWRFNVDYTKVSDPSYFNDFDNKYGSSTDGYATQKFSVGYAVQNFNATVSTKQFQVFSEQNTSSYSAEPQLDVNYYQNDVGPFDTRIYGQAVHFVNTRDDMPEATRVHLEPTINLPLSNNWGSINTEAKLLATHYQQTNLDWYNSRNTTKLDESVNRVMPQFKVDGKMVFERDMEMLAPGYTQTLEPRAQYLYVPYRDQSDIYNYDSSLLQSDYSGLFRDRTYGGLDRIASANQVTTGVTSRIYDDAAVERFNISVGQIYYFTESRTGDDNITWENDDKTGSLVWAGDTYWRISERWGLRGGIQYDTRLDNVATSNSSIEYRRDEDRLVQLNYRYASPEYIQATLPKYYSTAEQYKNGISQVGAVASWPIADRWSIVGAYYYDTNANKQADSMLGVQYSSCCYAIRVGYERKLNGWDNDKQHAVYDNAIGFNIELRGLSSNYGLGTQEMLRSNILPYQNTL
Sequence of UniProt P0ADC1 (whole entry, looked up): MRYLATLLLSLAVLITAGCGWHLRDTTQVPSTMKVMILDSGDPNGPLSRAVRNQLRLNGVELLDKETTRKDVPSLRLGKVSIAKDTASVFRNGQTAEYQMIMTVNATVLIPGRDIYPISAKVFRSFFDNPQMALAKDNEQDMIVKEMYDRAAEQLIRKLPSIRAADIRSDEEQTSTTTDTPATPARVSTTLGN
Sequence of UniProt P33913 (whole entry, unmodified, looked up): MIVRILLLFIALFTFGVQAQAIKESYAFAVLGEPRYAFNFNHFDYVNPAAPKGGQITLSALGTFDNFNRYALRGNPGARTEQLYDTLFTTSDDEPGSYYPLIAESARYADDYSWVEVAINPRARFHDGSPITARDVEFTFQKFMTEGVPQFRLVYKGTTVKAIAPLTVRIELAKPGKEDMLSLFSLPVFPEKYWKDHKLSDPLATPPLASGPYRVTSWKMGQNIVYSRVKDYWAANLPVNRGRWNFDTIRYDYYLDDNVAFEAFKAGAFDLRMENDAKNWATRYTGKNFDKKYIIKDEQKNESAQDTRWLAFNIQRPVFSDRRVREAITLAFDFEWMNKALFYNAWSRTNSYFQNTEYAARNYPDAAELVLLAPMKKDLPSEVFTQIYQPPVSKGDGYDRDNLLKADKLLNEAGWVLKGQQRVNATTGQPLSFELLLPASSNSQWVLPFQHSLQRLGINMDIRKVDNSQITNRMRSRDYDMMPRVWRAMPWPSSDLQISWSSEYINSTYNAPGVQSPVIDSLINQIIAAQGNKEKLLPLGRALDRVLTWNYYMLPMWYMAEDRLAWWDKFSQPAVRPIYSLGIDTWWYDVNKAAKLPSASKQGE

Structure (SMILES) | target | assay | system | conditions | Kd [µM]
CC(C)C[C@H](NC(=O)[C@H](CO)NC(=O)[C@@H]1CCCN1C(=O)[C@H](CCC(N)=O)NC(=O)[C@@H](NC(=O)[C@H](C)NC(=O)[C@H](CCCCN)NC(=O)[C@H](Cc1c[nH]cn1)NC(=O)[C@H](Cc1ccc(O)cc1)NC(=O)[C@H](COP(=O)(O)O)NC(=O)[C@H](CCC(=O)O)NC(=O)[C@H](CCCNC(=N)N)NC(=O)[C@H](CCCNC(=N)N)NC(=O)[C@H](C)NC(=O)[C@H](C)N)[C@@H](C)O)C(=O)O | Magi2 | ITC | – | pH 8.0, 25 °C, together with: tandem peptide | 0.27 ± 0.07
CSCC[C@@H]1NC(=O)[C@H](CCSC)NC(=O)[C@H]([C@@H](C)O)NC(=O)[C@@H]2CSSC[C@@H]3NC(=O)[C@H]([C@@H](C)O)NC(=O)[C@H](CC(N)=O)NC(=O)[C@H](CSSC[C@@H](C(=O)N[C@@H](CC(=O)O)C(=O)N[C@@H](CCC(N)=O)C(=O)O)NC(=O)[C@H](CC(C)C)NC1=O)NC(=O)[C@H](CCCCN)NC(=O)[C@H](CC(=O)O)NC(=O)[C@H](CCCCN)NC(=O)[C@H](Cc1ccccc1)NC(=O)[C@H]([C@@H](C)O)NC(=O)[C@H]([C@@H](C)O)NC(=O)CNC(=O)[C@@H]1CCCN1C(=O)[C@H](CCC(=O)O)NC(=O)[C@@H](NC(=O)[C@@H](NC(=O)[C@@H](NC(=O)[C@H](CCC(=O)O)NC(=O)[C@H](CO)NC(=O)CN)C(C)C)[C@@H](C)O)CSSC[C@H](NC(=O)[C@H](CCCNC(=N)N)NC3=O)C(=O)NCC(=O)N[C@@H](CO)C(=O)N[C@@H](CC(=O)O)C(=O)NCC(=O)N[C@@H](CCCCN)C(=O)N[C@@H](CO)C(=O)N[C@@H](C)C(=O)N[C@@H](C)C(=O)N2 | Chymotrypsin-C S216A | competitive fluorescence polarization | – | 24 h, pH 8.0, together with: FITC-labelled tracer | 0.00132 ± 0.00044
CC[C@H](C)[C@H](NC(=O)[C@H](C)NC(=O)[C@H](CCCNC(=N)N)NC(=O)[C@H](CCCNC(=N)N)NC(=O)[C@H](Cc1ccc(O)cc1)NC(=O)[C@H](CCC(=O)O)NC(=O)[C@H](CCC(=O)O)NC(=O)[C@H](CCCNC(=N)N)NC(=O)[C@H](CCCNC(=N)N)NC(=O)[C@@H](N)CCCNC(=N)N)C(=O)N[C@@H](CC(N)=O)C(=O)NCC(=O)N[C@@H](CCC(N)=O)C(=O)N[C@@H](CO)C(=O)N[C@@H](CCCNC(=N)N)C(=O)O | Magi2 | ITC | – | pH 8.0, 25 °C, together with: tandem peptide | 4.3 ± 1
CC(C)C[C@@H]1NC(=O)CNC(=O)[C@@H]2CSSC[C@@H]3NC(=O)[C@H]([C@@H](C)O)NC(=O)[C@H](CC(N)=O)NC(=O)[C@H](CSSC[C@@H](C(=O)N[C@@H](Cc4ccc(O)cc4)C(=O)N[C@@H](CCC(N)=O)C(=O)O)NC(=O)[C@H](CC(C)C)NC(=O)[C@H](C)NC1=O)NC(=O)[C@H](CCCCN)NC(=O)[C@H](CC(=O)O)NC(=O)[C@H](CCCCN)NC(=O)[C@H](Cc1ccccc1)NC(=O)[C@H]([C@@H](C)O)NC(=O)[C@H]([C@@H](C)O)NC(=O)CNC(=O)[C@@H]1CCCN1C(=O)[C@H](CCC(=O)O)NC(=O)[C@@H](NC(=O)[C@@H](NC(=O)[C@@H](NC(=O)[C@H](CCC(=O)O)NC(=O)[C@H](CO)NC(=O)CN)C(C)C)[C@@H](C)O)CSSC[C@H](NC(=O)[C@H](CCCNC(=N)N)NC3=O)C(=O)NCC(=O)N[C@@H](CO)C(=O)N[C@@H](CC(=O)O)C(=O)NCC(=O)N[C@@H](CCCCN)C(=O)N[C@@H](CO)C(=O)N[C@@H](C)C(=O)N[C@@H](Cc1ccc(O)cc1)C(=O)N2 | Chymotrypsin-C S216A | competitive fluorescence polarization | – | 24 h, pH 8.0, together with: FITC-labelled tracer | 0.00184 ± 0.00073
CSCC[C@H](NC=O)C(=O)N[C@@H](CCCNC(=N)N)C(=O)N[C@H](C(=O)NCC(=O)N[C@@H](CC(N)=O)C(=O)N[C@@H](C)C(=O)N[C@@H](CC(N)=O)C(=O)NCC(=O)NCC(=O)N[C@@H](CCCCNC(=S)Nc1ccc2c(c1)C(=O)OC21c2ccc(O)cc2Oc2cc(O)ccc21)C(=O)O)[C@@H](C)O | Uncharacterized protein YejA (yejA, Escherichia coli, UniProt P33913, Y155A) | binding, fluorescence polarisation | – | YejA variant Y137A | 31.3 ± 3.33
Nc1ncnc2c1ncn2[C@@H]1O[C@H](C[C@@H](N)CC[C@H](N)C(=O)O)[C@@H](O)[C@H]1O | O-methyltransferase (Sorghum bicolor, UniProt A0A1B6PFV1, W279A) | isothermal titration calorimetry | – | RSV-saturating | 1.68 ± 0.215
CC(=O)N[C@@H](CCCNC(=N)N)C(=O)N[C@H](C(=O)N[C@@H](CCCCN)C(=O)N[C@@H](CO)C(=O)N[C@@H](CCCNC(=N)N)C(=O)N[C@H](C(=O)N[C@@H](Cc1c[nH]c2ccccc12)C(=O)N[C@@H](C)C(=O)N[C@@H](Cc1ccccc1)C(N)=O)[C@@H](C)OP(=O)(O)O)[C@@H](C)O | 14-3-3 protein epsilon | binding, SPR | – | – | 0.0208
CC(C)C[C@H](NC(=O)[C@H](CCCNC(=N)N)NC(=O)[C@H](CC(C)C)NC(=O)[C@H](CO)NC(=S)Nc1ccc2c(c1)C(=O)OC21c2ccc(O)cc2Oc2cc(O)ccc21)C(=O)N[C@@H](CCCCN)C(=O)N[C@@H](CS)C(=O)NCC(=O)N[C@@H](CCP(=O)(O)O)C(=O)NCC(=O)N1CCC[C@H]1C(=O)N[C@H](C(=O)N[C@@H](Cc1c[nH]c2ccccc12)C(=O)N[C@@H](CC(C)C)C(=O)N[C@H](C(=O)N1CCC[C@H]1C(=O)N[C@@H](CCCNC(=N)N)C(=O)O)C(C)C)C(C)C | 14-3-3 protein epsilon | binding, fluorescence anisotropy | – | pH 7.5, FITC-labelled phosphopeptide titration | 63
CC(=O)NCC(=O)N[C@@H](Cc1ccccc1)C(=O)N[C@@H](Cc1ccccc1)C(=O)N[C@@H](Cc1ccc(O)cc1)C(=O)O | Insulin-like growth factor 1 receptor (IGF1R, Homo sapiens, UniProt P08069) | binding, MST | – | – | 1.03
CC(=O)NCCCC[C@H](NC(=O)[C@H](CCCNC(=N)N)NC(=O)[C@H](C)NC(=O)[C@H](C)NC(=O)[C@H](CCCCN)NC(=O)[C@@H](N)[C@@H](C)O)C(=O)N[C@@H](CO)C(=O)N[C@@H](C)C(=O)N1CCC[C@H]1C(=O)N[C@@H](C)C(=O)N[C@H](C(=O)O)[C@@H](C)O | YEATS domain-containing protein 4, YEATS domain (Homo sapiens, UniProt O95619) | isothermal titration calorimetry | – | pH 7.6, 25 °C, together with: histone peptide | 68 ± 3.5
CSCC[C@@H]1NC(=O)[C@H](CCSC)NC(=O)[C@H]([C@@H](C)O)NC(=O)[C@@H]2CSSC[C@@H]3NC(=O)[C@H]([C@@H](C)O)NC(=O)[C@H](CC(N)=O)NC(=O)[C@H](CSSC[C@@H](C(=O)N[C@@H](CC(=O)O)C(=O)N[C@@H](CCC(N)=O)C(=O)O)NC(=O)[C@H](CC(C)C)NC1=O)NC(=O)[C@H](CCCCN)NC(=O)[C@H](CC(=O)O)NC(=O)[C@H](CCCCN)NC(=O)[C@H](Cc1ccccc1)NC(=O)[C@H]([C@@H](C)O)NC(=O)[C@H]([C@@H](C)O)NC(=O)CNC(=O)[C@@H]1CCCN1C(=O)[C@H](CCC(=O)O)NC(=O)[C@@H](NC(=O)[C@@H](NC(=O)[C@@H](NC(=O)[C@H](CCC(=O)O)NC(=O)[C@H](CO)NC(=O)CN)C(C)C)[C@@H](C)O)CSSC[C@H](NC(=O)[C@H](CCCNC(=N)N)NC3=O)C(=O)NCC(=O)N[C@@H](CO)C(=O)N[C@@H](CC(=O)O)C(=O)NCC(=O)N[C@@H](CCCCN)C(=O)N[C@@H](CO)C(=O)N[C@@H](C)C(=O)N[C@@H](Cc1ccc(O)cc1)C(=O)N2 | Chymotrypsin-C (Homo sapiens, UniProt Q99895) | cell-free assay, FP | – | pH 8 | 0.00169
O=C(N[C@@H]1c2ccccc2C[C@H]1N1CCCC1)c1ccc(-c2ccnc3[nH]ccc23)nc1 | eIF-2-alpha kinase GCN2, C-terminal kinase domain (EIF2AK4, Homo sapiens, UniProt Q9P2K8, S808G) | binding, competition with immobilised ligand | – | – | 2.05
CC[C@H](C)[C@H](NC(=O)[C@@H](NC(=O)[C@@H]1CCCN1C(=O)[C@@H](NC(=O)[C@@H]1CCCN1C(=O)[C@H](CCCCN)NC(=O)[C@H](CCCCN)NC(=O)[C@H](CO)NC(=O)CNC(=O)CCOCCOCCOCCOCc1cn(CCCNC(=O)CCCCC[N+]2=C(/C=C/C=C3/N(C)c4ccccc4C3(C)C)C(C)(C)c3ccccc32)nn1)C(C)C)[C@@H](C)CC)C(=O)N[C@@H](Cc1ccc(O)cc1)C(=O)N[C@H]1CSSC[C@@H](C(=O)N[C@@H](CCC(N)=O)C(=O)N[C@@H](CCCNC(=N)N)C(=O)N[C@@H](CCSC)C(=O)O)NC(=O)[C@H](CCCCN)NC(=O)CNC(=O)[C@H]([C@@H](C)O)NC(=O)[C@H](CCCNC(=N)N)NC(=O)[C@H](CCCNC(=N)N)NC(=O)[C@H](CC(N)=O)NC1=O | lptE/lptD (Escherichia coli, UniProt P0ADC1+P31554) | binding, fluorescence titration | – | pH 8, room temperature, 1% octyl glucoside | 0.04
CC[C@@H](C)[C@@H](NC(=O)[C@@H](CCC(N)=O)NC(=O)[C@H](NC(=O)[C@H]1CCCN1C(=O)[C@H](NC(=O)[C@@H](CO)NC(=O)[C@@H](Cc1ccccc1)NC(=O)[C@H]1CCCN1C(=O)[C@@H](CCC(N)=O)NC(=O)[C@H](N)CCSC)[C@H](C)CC)C(C)C)C(=O)N[C@@H](C(=O)N[C@H](CC(C)C)C(=O)N[C@H](CCC(N)=O)C(=O)NCC(=O)N[C@H](CO)C(=O)N[C@H](CCCNC(=N)N)C(=O)N[C@H](CCCNC(=N)N)C(=O)N[C@H](CCCNC(=N)N)C(=O)N[C@H](CCC(N)=O)C(=O)NCC(=O)N[C@H](CCCNC(=N)N)C(N)=O)[C@H](C)O | Kcnma1 (Mus musculus, UniProt Q08460) | ion current, blocker, inside-out patch clamp | Xenopus oocytes | +100 mV, together with: 10 µM cytosolic Ca2+ | 3.1

For quick reference, copied from above:
Structure (SMILES) | target | assay | system | conditions | Kd [µM]
CC[C@@H](C)[C@@H](NC(=O)[C@@H](CCC(N)=O)NC(=O)[C@H](NC(=O)[C@H]1CCCN1C(=O)[C@H](NC(=O)[C@@H](CO)NC(=O)[C@@H](Cc1ccccc1)NC(=O)[C@H]1CCCN1C(=O)[C@@H](CCC(N)=O)NC(=O)[C@H](N)CCSC)[C@H](C)CC)C(C)C)C(=O)N[C@@H](C(=O)N[C@H](CC(C)C)C(=O)N[C@H](CCC(N)=O)C(=O)NCC(=O)N[C@H](CO)C(=O)N[C@H](CCCNC(=N)N)C(=O)N[C@H](CCCNC(=N)N)C(=O)N[C@H](CCCNC(=N)N)C(=O)N[C@H](CCC(N)=O)C(=O)NCC(=O)N[C@H](CCCNC(=N)N)C(N)=O)[C@H](C)O | Kcnma1 (Mus musculus, UniProt Q08460) | ion current, blocker, inside-out patch clamp | Xenopus oocytes | +100 mV, together with: 10 µM cytosolic Ca2+ | 3.1
